Measurements pooled from the literature.
Numbered parts are unrelated; each lists some results of a single study. Positions count from the first letter of the parent shown.

Series 1
Target: ABI1, truncated, D143A, DHFR fusion (Arabidopsis thaliana)
Technique: DHFR PCA, deep sequencing
Matrix: yeast
Notes: methotrexate growth selection, single substitutions
Together with: (+)-ABA 1.4 µM
Reference: wild-type fitted maximum
Direction: higher = stronger binding
Starting sequence: PYL1, truncated, DHFR fusion (Arabidopsis thaliana); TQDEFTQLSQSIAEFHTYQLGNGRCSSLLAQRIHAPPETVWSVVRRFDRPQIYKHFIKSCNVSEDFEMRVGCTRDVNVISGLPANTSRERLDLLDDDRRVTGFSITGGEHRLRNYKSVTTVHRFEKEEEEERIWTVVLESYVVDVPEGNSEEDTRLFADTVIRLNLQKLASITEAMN
`H110S`: “relative binding score” 23.6%.
For `Y141S`, “relative binding score” read -5.54%.
`K126G`: “relative binding score” 77.8%.
Under “relative binding score”, `E127G` is recorded as 60.9%.
For `D144A`, “relative binding score” read -0.0764%.
`T120S` — result for “relative binding score”: 75.2%.
For `L164Q`, “relative binding score” read 61%.
`R32M` — result for “relative binding score”: 47.3%.
For `S9N`, “relative binding score” read 54.2%.
For `I52G`, “relative binding score” read 6.74%.
`F66P`: “relative binding score” 8.8%.
Under “relative binding score”, `R74T` is recorded as -5.98%.
For `M176W`, “relative binding score” read 38.6%.
For `L93G`, “relative binding score” read -3.22%.
`D159R` — result for “relative binding score”: -13.6%.
`H122S`: “relative binding score” 0.347%.
`E67C`: “relative binding score” 40%.
`N149T` — result for “relative binding score”: 44.1%.

Series 2
Target: Histone acetyltransferase KAT6A, both winged helices, GST fusion (KAT6A, Homo sapiens, UniProt Q92794, residues 1-181)
Technique: protein binding microarray
Form: double-stranded DNA, one strand shown
Matrix: in vitro
Tested at: not given
Notes: 8-mer, flanks averaged, mean of 2 arrays, mostly near background
Reference: not given
Direction: higher = stronger binding
Construct (chain): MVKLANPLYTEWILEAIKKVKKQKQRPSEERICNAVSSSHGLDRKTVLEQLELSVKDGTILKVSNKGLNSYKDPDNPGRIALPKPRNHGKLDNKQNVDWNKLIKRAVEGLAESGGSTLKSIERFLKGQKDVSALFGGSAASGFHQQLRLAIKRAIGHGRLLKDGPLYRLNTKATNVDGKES
`GCGTTCAA` gave an E-score of 0.0666.
`GGCGTACA` gave an E-score of 0.133.
The E-score of `AAATGGTG` is reported as -0.105.
The E-score of `AGCTCGGG` is reported as 0.00775.
For `CAAAACAC`, the E-score was 0.0294.
The E-score of `AAAGACGC` is reported as 0.157.
The E-score of `AGTGACCC` is reported as -0.0807.
With `AACTCAAC` the E-score was -0.117.
`CGGTCCCC` has an E-score of 0.0724.
`CACCCTGC` has an E-score of -0.115.
`CCGAGAGG` has an E-score of -0.00255.
`ACAAGCGG` gave an E-score of 0.162.
For `ATTGCCTC`, the E-score was -0.189.
`GGAATACA` gave an E-score of 0.00931.
`ACCTCGAC` has an E-score of -0.0885.
`ACGATGCA` has an E-score of -0.169.
`ACATAGAA` has an E-score of -0.155.
The E-score of `AGCATTGC` is reported as -0.0325.

Series 3
Target: CCNA1, cyclin fold, Cln2 fusion (human)
Technique: yeast growth competition, sequencing
Matrix: yeast
Notes: weak parent motif
Reference: not given
Direction: higher = stronger binding
Starting sequence: REV3L docking peptide (human); PPVIIKYIIINRF
`PPVIIAYIIINRF [K6A]`: “normalised enrichment score” 0.658.
For `PPVIIKYAIINRF [I8A]`, “normalised enrichment score” read -0.2.
`APVIIKYIIINRF [P1A]` — result for “normalised enrichment score”: 0.0761.
For `PPVIIKYIIIARF [N11A]`, “normalised enrichment score” read 0.745.
`PPVIIKYIAINRF [I9A]` — result for “normalised enrichment score”: 0.0711.
For `PPVIAKYIIINRF [I5A]`, “normalised enrichment score” read -0.339.
For `PPVIIKYIIINRA [F13A]`, “normalised enrichment score” read 0.706.

Series 4
Target: RING finger protein unkempt homolog, zinc fingers 1-6, GST-SBP tag (UNK, Homo sapiens, UniProt Q9C0B0, residues 30-357)
Chain of UniProt Q9C0B0 (30-357, looked up): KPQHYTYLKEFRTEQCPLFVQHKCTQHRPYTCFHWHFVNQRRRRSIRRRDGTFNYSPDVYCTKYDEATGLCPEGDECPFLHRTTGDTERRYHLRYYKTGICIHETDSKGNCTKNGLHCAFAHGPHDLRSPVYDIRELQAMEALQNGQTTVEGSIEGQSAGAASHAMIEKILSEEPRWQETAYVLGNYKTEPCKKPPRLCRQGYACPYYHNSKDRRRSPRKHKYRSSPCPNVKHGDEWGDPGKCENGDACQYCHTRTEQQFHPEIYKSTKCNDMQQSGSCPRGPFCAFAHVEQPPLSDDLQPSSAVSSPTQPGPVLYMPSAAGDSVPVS
Technique: RNA Bind-n-Seq
Form: RNA
Matrix: in vitro
Tested at: not given
Notes: RNA with constant flanks, ends assumed
Reference: input RNA pool
Direction: higher = stronger binding
All sequences stand within: GGGAGUUCUACAGUCCGACGAUC … CAACAGAGGAUUGAGCAUCA
The bound/input enrichment of `GAUGGGGGCCUUGUUUUGUUUUGUUUUGGUUUUUGGAGACAGGGUCUCACUGUGUAGUCCCCGCUGGCCUGGAACUCACUAUGUAGAUCAGGCUGGACUGAACUCACAAAGAUCCACCUG` is reported as 0.249 ratio.
For `GUGGUUUGUCUUAUCUCCUGCCUUGAUCUUCCAUGUCAUUUCCCAGUGGGCAACUAUCAUCCGUUUAUACCUCGAUUUUAUUUGCCCUGUGUAAUUUUUAACUAAAAAUGUUACAUAACC`, the bound/input enrichment was 0.155 ratio.
The bound/input enrichment of `UCCCAGCCCUAGUGACCUUGUCUUCCCAUGGGCUUUUUUCCCUUCCUAGUGUCUGCAGGCCCGGUGCCUCCUCCAUAGGUGGUCCUGCUUUCUGUUCCUGGGGUUAGGGUGGCCCUCUCC` is reported as 0.378 ratio.
For `GAACCUGAGCCAGCAGAAGAGUACACUGAGCAAAGUGAAGUUGAAUCAACAGAGUAUGUAAACCGACAGUUCAUGGCAGAAACACAGUUCACCAGUGGUGAAAAGGAGCAGGUAGAUGAG`, the bound/input enrichment was 0.258 ratio.
The bound/input enrichment of `UAAUGUUCUUAGAAAAGAAUUCUCAUUCAUCUUCCCAUAGUGAAAUUCUCUAGCACUGUAUUCCGAUUCUGGAUUUUUAUAAUUCAUGCUUAAUGUAUUAGACAUUUUUAGCCCAUAAUU` is reported as 11.2 ratio.
With `GGUUUUCCUAAAGUCAACAUUCUCCUCAGGGAUGCCAUUGAAAAGUUAUUUCCUGAUGCCAUCCGAAUGCGAGUUGAAGACAUUCAGCAGAAUAAUGAUGUAGUCCAAAGUCUUGCAGCC` the bound/input enrichment was 0.199 ratio.
`AUGAGCAUAAAUGAAGCUAAGGAAUAUGAAGUGUACGACAGUUCGCCUCAUCUUGAGUGCCCCGCAGAAUUUCAGGAGAAAGUCAGGAAGACCAACAAUUUUUCAGCUUUUCUUGCCAAU` has a bound/input enrichment of 0.111 ratio.
With `UCCAGCGCAGAGCCCCGUCCUGAUUGAUCGCAUCGCGGGGCUCAGAUGACUGUAAAAUGAACCGAUGAAAUUCUUGCUUCUCGAAGAUUUUCUUGGGCAUCUCCCGGAAAGUGCGUUUUA` the bound/input enrichment was 0.174 ratio.

For quick reference, copied from above (series 1):
`H110S`: “relative binding score” 23.6%.
For `Y141S`, “relative binding score” read -5.54%.
`K126G`: “relative binding score” 77.8%.
Under “relative binding score”, `E127G` is recorded as 60.9%.
For `D144A`, “relative binding score” read -0.0764%.
`T120S` — result for “relative binding score”: 75.2%.
For `L164Q`, “relative binding score” read 61%.
